{"data": "Published values pooled from the literature", "note": "Parts stem from different laboratories: compare values within a part only. Substitutions count along the parent as printed."}
{"data": "Block 1", "target": "HLF, bZIP domain (human)", "method": "DHFR protein complementation", "sample": "yeast", "setting": "single substitutions, most at no-binding floor", "baseline": "wild-type JUN-FOS pair", "direction": "higher = stronger binding", "parent": "JUN, bZIP domain (human); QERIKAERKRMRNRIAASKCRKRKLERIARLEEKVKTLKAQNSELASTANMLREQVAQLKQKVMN; partner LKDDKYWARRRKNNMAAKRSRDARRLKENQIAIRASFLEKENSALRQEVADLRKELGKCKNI"}
{"Change": "Q55Y", "binding fitness [natural log]": -1.68}
{"Change": "E54A", "binding fitness [natural log]": -1.49}
{"Change": "E33A", "binding fitness [natural log]": -1.45}
{"Change": "R30F", "binding fitness [natural log]": -1.29}
{"Change": "A46D", "binding fitness [natural log]": -1.48}
{"Change": "I28P", "binding fitness [natural log]": -1.42}
{"Change": "K39R", "binding fitness [natural log]": -1.33}
{"Change": "A29C", "binding fitness [natural log]": -1.22}
{"data": "Block 2", "target": "Sal-like protein 4, full length isoform B (SALL4, Homo sapiens, UniProt Q9UJQ4-2, residues 1-616)", "method": "universal PBM", "form": "double-stranded DNA, one strand shown", "sample": "in vitro", "concentration": "not given", "setting": "8-mer, flanks averaged, mean of replicates", "direction": "higher = stronger binding", "Target sequence (chain)": "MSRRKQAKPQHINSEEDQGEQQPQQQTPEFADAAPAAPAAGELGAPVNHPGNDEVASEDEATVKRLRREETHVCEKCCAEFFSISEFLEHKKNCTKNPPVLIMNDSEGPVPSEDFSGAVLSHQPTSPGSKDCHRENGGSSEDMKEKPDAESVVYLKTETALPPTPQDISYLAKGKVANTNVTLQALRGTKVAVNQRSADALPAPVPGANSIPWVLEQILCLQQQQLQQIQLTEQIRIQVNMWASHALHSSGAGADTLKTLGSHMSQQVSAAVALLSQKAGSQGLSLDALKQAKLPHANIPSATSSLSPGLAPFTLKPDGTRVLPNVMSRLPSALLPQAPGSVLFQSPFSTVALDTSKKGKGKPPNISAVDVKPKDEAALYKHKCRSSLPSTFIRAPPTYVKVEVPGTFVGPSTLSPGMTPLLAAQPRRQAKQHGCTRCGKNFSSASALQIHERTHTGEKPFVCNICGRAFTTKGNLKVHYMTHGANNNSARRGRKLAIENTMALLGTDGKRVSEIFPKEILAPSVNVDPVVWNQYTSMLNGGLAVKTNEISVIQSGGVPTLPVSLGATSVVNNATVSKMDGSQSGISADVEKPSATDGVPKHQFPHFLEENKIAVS"}
{"Oligonucleotide": "CCATGCAC", "E-score": -0.105}
{"Oligonucleotide": "AATACGGT", "E-score": 0.0546}
{"Oligonucleotide": "AATCATGG", "E-score": 0.146}
{"Oligonucleotide": "AGATTTGG", "E-score": 0.0257}
{"Oligonucleotide": "AGGGGGCC", "E-score": -0.325}
{"Oligonucleotide": "ATAGTCCC", "E-score": 0.00943}
{"Oligonucleotide": "AATGACGG", "E-score": -0.0614}
{"Oligonucleotide": "CGGGCCCA", "E-score": -0.282}
{"data": "Block 3", "target": "TAR DNA-binding protein 43, full length, His tag (TARDBP, Homo sapiens, UniProt Q13148, residues 1-414)", "method": "RNA Bind-n-Seq", "form": "RNA", "sample": "in vitro", "concentration": "20 nM", "setting": "6-mer, flanks averaged, single round", "added": "150 mM KCl", "baseline": "input library", "direction": "higher = stronger binding"}
{"Oligonucleotide": "AAUCAA", "6-mer enrichment (R)": 0.613}
{"Oligonucleotide": "UUCUCC", "6-mer enrichment (R)": 0.575}
{"Oligonucleotide": "UUUUCA", "6-mer enrichment (R)": 0.604}
{"Oligonucleotide": "GUCCGA", "6-mer enrichment (R)": 0.823}
{"Oligonucleotide": "UCUAAU", "6-mer enrichment (R)": 0.616}
{"Oligonucleotide": "UUGCUA", "6-mer enrichment (R)": 0.631}
{"Oligonucleotide": "GCCUCC", "6-mer enrichment (R)": 0.66}
{"Oligonucleotide": "GAGUGC", "6-mer enrichment (R)": 1.53}
{"data": "Mixed results"}
{"Molecule": "MTDLSKKGY", "target": "HLA class I histocompatibility antigen, A alpha chain, allele A*80:01 (Homo sapiens, UniProt P04439)", "effect on": "peptide-MHC binding", "form": "peptide", "concentration": "concentration not given", "endpoint": "binding", "result": "inactive"}
{"note": "Some of these lines once more (block 1):"}
{"Change": "A29C", "binding fitness [natural log]": -1.22}
{"Change": "A46D", "binding fitness [natural log]": -1.48}
